Earlier results as cited in several papers.
Lines come from different studies, so protocols differ. Numbers after ± are the reported error.
ABCB1: ATP-dependent translocase ABCB1 (ABCB1, Homo sapiens, UniProt P08183)
Sequence of UniProt P08183 (whole entry, looked up): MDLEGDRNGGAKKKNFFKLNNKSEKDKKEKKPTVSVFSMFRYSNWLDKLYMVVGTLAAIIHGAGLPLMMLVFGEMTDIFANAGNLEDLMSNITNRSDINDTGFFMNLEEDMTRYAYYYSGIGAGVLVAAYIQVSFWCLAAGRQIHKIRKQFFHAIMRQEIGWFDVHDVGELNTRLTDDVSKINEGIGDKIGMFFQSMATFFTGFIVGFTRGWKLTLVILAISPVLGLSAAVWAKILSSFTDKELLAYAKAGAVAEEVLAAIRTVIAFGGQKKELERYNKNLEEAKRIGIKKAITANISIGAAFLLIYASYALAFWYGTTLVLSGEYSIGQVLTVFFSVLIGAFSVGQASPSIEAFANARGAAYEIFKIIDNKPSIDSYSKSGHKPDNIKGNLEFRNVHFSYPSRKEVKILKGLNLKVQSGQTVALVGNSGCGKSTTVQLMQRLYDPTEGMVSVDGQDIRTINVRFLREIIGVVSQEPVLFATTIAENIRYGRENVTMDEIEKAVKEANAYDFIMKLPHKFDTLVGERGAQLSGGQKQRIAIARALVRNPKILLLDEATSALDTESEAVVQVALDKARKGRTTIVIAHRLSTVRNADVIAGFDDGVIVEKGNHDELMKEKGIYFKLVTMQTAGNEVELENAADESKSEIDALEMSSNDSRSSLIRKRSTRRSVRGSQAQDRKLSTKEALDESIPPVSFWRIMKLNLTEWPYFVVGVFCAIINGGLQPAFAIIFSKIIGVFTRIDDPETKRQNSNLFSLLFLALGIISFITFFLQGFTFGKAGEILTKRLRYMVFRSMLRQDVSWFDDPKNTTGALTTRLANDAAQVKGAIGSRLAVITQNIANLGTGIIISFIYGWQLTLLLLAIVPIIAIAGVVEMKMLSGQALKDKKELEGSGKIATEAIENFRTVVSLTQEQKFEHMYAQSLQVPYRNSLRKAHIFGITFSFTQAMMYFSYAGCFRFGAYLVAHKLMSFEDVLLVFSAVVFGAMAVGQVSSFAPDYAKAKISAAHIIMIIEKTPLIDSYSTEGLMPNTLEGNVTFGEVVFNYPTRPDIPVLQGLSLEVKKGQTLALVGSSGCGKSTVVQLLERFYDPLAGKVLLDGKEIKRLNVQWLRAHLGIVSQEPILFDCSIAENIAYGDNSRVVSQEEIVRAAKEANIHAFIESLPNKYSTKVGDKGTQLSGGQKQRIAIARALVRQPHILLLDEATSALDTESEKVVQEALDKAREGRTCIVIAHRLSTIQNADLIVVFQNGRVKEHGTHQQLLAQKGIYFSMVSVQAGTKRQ
Sequence of UniProt P11712 (whole entry, looked up): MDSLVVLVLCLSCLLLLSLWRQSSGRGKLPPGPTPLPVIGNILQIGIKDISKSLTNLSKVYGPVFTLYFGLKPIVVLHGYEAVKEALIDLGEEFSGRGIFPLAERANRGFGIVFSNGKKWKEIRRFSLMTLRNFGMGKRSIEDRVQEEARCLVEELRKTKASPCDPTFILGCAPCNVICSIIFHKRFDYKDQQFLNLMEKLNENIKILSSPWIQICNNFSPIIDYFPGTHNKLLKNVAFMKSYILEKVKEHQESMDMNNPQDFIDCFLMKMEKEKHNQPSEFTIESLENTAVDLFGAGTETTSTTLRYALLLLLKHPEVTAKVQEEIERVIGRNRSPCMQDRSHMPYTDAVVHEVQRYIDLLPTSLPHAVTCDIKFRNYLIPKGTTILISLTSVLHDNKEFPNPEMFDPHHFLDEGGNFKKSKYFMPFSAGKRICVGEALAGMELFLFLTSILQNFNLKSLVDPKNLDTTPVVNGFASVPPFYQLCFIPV
Sequence of UniProt P08684 (whole entry, looked up): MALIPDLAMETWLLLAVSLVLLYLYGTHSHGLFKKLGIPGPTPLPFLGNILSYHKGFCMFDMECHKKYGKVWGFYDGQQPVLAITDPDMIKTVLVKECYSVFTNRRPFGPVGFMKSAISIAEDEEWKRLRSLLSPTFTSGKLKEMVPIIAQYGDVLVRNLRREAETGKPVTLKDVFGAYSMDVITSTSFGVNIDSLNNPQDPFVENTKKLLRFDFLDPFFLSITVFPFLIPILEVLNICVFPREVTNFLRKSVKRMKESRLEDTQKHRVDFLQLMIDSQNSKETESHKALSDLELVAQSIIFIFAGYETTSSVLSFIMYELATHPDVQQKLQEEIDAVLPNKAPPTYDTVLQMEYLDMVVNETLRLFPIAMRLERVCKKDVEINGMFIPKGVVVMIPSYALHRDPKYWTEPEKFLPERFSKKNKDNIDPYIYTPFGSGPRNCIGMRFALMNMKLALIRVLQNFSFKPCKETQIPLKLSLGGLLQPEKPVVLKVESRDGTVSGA

`C[C@@H](c1cc(-c2ccc(OC(F)(F)F)cc2)no1)[C@](O)(Cn1cnnn1)c1ccc(F)cc1F`: inhibition “no inhibition” (CYP1A2; inhibitor; concentration not given).
With `CC(=O)N1CCC(NC(=O)NC23CC4CC(C)(CC(C2)c2ccccc24)C3)CC1` the inhibition was 8 ± 3% (Cytochrome P450 3A4 (CYP3A4, Homo sapiens, UniProt P08684); enzyme activity, inhibitor; 10 µM, with: DBF substrate).
For `O=C(O)c1cc2cc(O)ccc2n1Cc1ccc(Cl)c(C(F)(F)F)c1`, the IC50 was 94 µM (human BSEP; bile acid transport).
For `COc1ccc(Nc2nccc(-c3c[nH]nc3-c3cccnc3)n2)cc1`, the inhibition was 40% (Cytochrome P450 2C9 (CYP2C9, Homo sapiens, UniProt P11712); 10 µM).
`CCCCc1oc2ccccc2c1C(=O)c1cc(I)c(OCCNCC)c(I)c1` has a potency ratio of 40 to 90 (CYP2C9, human; inhibitor; relative to: compound over amiodarone).
`CN1CCC(C)(C)c2cc3c(-c4ccc(C(=S)N5CCCCC5)s4)c4ccc(=[N+](C)C)cc-4sc3cc21`: “cellular dye accumulation ratio” 1.8 (ABCB1; item: cell-associated dye; relative to: with over without P-gp inhibitor).
With `CC[C@H](C)[C@@H]1NC(=O)[C@H](CCSC)NC(=O)CCCC(=O)NCCCC[C@@H](C(N)=O)NC(=O)[C@H]([C@@H](C)O)NC(=O)CNC(=O)[C@H](C)NC(=O)[C@H](C(C)C)NC(=O)[C@H](Cc2ccccc2)NC(=O)[C@H](CCC(=O)O)NC(=O)[C@H](Cc2ccc(O)cc2)NC(=O)[C@H](Cc2c[nH]c3ccccc23)NC(=O)[C@H]([C@@H](C)O)NC1=O` the protease resistance was ~3 fold (Chymotrypsinogen A (Bos taurus, UniProt P00766); relative to: linear sequence).
Under stability, `Nc1nc2c(ncn2[C@@H]2O[C@@H]3COP(=O)(O)O[C@H]4[C@@H](F)[C@H](n5cnc6c(N)ncnc65)O[C@@H]4CSP(=O)(O)O[C@@H]2[C@@H]3O)c(=O)[nH]1` is recorded as “stable” (ENPP1).
`O=C1C=C2CN(C(C(=O)C3CC3)c3ccccc3F)CCC2S1` (stereo not drawn) — result for “contribution to bioactivation”: 38 to 70% (CYP3A4; item: prasugrel active metabolite; in vitro; concentration not given).
`CC#N.Cc1ccc(O)c(CN(CCN(Cc2ccccn2)Cc2ccccn2)Cc2ccccn2)c1.[Mn+2]` gave a pKa of 6.16 (Mn(II) complex, metal-bound phenol; 25 °C).
Under “contribution to metabolism”, `Cc1[nH]nc2c1N=C(c1ccccc1Cl)c1cnc(N3CCOCC3)cc1N2` is recorded as 24.5% (CYP2D6; substrate, chemical inhibition).
The cell-associated fraction of `CN1CCC(C)(C)c2cc3c(-c4ccc(C(=O)N5CCCCC5)s4)c4ccc(=[N+](C)C)cc-4sc3cc21` is reported as 8.6 ± 0.1% (ABCB1; substrate; no inhibitor).

A few entries again:
For `O=C(O)c1cc2cc(O)ccc2n1Cc1ccc(Cl)c(C(F)(F)F)c1`, the IC50 was 94 µM (human BSEP; bile acid transport).
